# Published values collected from several papers.
# Lines come from different studies, so protocols differ.
# ABCG2: Broad substrate specificity ATP-binding cassette transporter ABCG2 (ABCG2, Homo sapiens, UniProt Q9UNQ0)
# Chain of UniProt Q9UNQ0 (whole entry, looked up): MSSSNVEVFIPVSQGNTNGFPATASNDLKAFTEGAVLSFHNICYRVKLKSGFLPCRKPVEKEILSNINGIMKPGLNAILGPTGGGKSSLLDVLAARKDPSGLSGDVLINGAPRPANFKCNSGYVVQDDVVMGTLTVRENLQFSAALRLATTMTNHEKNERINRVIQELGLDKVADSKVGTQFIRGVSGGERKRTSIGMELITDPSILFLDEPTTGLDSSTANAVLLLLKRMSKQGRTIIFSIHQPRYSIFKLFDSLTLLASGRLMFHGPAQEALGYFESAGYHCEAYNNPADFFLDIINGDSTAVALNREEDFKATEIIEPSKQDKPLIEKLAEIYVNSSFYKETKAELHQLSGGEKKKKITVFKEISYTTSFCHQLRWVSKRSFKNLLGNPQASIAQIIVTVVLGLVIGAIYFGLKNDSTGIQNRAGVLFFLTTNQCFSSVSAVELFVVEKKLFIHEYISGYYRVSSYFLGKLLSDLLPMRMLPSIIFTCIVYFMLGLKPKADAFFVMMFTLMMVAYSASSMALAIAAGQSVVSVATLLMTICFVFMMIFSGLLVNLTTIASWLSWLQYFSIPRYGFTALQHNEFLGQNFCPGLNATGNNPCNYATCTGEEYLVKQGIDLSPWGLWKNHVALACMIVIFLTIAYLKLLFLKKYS
# Tumor necrosis factor receptor superfamily member 9/Nectin-4: Tumor necrosis factor receptor superfamily member 9/Nectin-4 (Homo sapiens, UniProt Q07011+Q96NY8)
# Chain of UniProt Q96NY8 (whole entry, looked up): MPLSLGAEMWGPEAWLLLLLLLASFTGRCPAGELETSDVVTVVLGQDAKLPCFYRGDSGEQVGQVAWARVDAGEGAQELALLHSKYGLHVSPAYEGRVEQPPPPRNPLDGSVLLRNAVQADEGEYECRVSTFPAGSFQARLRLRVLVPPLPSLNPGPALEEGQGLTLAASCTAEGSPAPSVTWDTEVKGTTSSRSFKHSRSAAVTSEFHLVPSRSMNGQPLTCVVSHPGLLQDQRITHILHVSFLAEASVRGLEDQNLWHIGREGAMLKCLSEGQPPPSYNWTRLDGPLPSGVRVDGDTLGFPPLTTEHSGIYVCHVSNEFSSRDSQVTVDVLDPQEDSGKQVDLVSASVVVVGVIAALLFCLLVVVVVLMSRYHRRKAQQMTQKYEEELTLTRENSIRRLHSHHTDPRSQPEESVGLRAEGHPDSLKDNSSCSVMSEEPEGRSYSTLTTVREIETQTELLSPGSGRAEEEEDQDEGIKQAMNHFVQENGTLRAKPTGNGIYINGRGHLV
# Chain of UniProt Q07011 (whole entry, looked up): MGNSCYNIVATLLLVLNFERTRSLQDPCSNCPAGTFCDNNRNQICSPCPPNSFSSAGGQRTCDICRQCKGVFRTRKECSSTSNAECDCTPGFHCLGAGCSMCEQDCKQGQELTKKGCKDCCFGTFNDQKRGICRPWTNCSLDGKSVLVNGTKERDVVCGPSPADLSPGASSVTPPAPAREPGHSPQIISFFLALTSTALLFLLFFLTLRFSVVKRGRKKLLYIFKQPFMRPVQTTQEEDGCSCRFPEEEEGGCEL
# Chain of UniProt Q86VL8 (whole entry, looked up): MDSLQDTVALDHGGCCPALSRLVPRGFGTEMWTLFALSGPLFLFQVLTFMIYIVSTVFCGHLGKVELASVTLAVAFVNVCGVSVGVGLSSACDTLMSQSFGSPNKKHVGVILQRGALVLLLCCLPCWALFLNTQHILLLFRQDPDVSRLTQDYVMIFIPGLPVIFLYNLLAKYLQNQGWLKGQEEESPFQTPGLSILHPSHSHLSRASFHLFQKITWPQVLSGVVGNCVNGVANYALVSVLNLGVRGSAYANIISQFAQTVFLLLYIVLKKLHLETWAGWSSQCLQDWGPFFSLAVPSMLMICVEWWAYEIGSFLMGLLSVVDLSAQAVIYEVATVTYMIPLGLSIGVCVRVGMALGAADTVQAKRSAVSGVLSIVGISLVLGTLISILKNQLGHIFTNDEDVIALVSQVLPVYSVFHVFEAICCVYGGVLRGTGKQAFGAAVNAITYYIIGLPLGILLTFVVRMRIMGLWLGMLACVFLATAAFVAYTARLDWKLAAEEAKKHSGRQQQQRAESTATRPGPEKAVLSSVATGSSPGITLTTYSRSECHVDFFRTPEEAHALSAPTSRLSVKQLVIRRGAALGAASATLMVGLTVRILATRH
# Chain of UniProt P33261 (whole entry, looked up): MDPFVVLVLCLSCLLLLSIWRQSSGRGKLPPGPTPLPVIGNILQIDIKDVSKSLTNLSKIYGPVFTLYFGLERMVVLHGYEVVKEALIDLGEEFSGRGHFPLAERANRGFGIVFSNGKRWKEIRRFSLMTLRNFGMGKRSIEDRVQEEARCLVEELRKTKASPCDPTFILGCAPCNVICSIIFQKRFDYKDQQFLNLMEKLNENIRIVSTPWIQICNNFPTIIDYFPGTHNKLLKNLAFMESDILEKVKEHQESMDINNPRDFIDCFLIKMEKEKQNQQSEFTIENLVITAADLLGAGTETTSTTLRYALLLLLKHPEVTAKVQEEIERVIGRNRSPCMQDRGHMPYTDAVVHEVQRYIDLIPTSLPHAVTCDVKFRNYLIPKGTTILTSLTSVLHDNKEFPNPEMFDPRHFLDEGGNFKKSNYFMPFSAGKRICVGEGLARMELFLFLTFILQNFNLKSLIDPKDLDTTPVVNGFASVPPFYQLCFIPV
# Chain of UniProt Q4U2R8 (whole entry, looked up): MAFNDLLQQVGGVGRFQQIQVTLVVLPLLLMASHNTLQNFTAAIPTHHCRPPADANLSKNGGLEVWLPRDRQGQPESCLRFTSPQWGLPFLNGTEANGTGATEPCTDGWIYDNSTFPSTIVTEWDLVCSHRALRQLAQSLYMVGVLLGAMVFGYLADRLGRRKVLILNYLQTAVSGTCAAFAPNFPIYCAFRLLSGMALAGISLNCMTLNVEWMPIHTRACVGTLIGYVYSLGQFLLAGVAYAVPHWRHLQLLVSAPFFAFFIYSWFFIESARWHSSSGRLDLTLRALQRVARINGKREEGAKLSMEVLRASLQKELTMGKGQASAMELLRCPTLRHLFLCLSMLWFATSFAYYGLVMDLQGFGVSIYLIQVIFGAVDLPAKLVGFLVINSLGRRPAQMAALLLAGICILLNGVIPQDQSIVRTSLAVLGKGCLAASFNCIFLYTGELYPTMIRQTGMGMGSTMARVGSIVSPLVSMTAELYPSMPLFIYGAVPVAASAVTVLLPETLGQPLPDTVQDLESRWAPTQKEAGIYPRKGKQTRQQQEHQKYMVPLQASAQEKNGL
Compound,tested on,test,test system,conditions,scale,endpoint,value
CC[C@H]1OC(=O)[C@H](C)[C@@H](O[C@H]2C[C@@](C)(OC)[C@@H](O)[C@H](C)O2)[C@H](C)[C@@H](O[C@@H]2O[C@H](C)C[C@H](N(C)C)[C@H]2O)[C@](C)(O)C[C@@H](C)CN(C)[C@H](C)[C@@H](O)[C@]1(C)O,"SLC47A2 (Homo sapiens, UniProt Q86VL8)","transport, inhibitor",,"50 µM, together with: thiamine",,inhibition,23%
Cc1cc2c(F)c(Oc3ncnn4cc(OC[C@@H](C)O)c(C)c34)ccc2[nH]1,ABCG2,inhibitor,,"concentration not given, 1 h",,inhibition,68%
CC1(C)[C@H](C(=O)OCc2cccc(Oc3ccccc3)c2)[C@@H]1C=C(Cl)Cl,CES2 human cytosolic,,,"0.1 µM, age 6 months",,enzyme contribution,5.83%
CCCC[C@@H]1NC(=O)[C@H](Cc2ccc(O)cc2)NC(=O)[C@@H]2CCCN2C(=O)[C@H](CC(=O)O)NC(=O)[C@H](C)NC(=O)[C@H](Cc2ccccc2)NC(=O)[C@@H]2CSCCC(=O)N3CN(CN(C3)C(=O)CCSC[C@@H](C(=O)N[C@@H](C)C(N)=O)NC1=O)C(=O)CCSC[C@H](NC(C)=O)C(=O)N[C@@H](CC(C)(C)C)C(=O)N1CCC[C@H]1C(=O)N[C@@H](CCC(=O)O)C(=O)N[C@H](CCCCNC(=O)CCc1cn(CCOCCOCCOCCOCCOCCC(=O)NCCCC[C@H]3NC(=O)[C@H](Cc4cccc5ccccc45)NC(=O)[C@@H]4CCCN4C(=O)CCSCCC(=O)N4CN5CN(C4)C(=O)CCSC[C@H](NC3=O)C(=O)N[C@@H](CCSC)C(=O)N[C@@H](CCCCNC(=N)N)C(=O)N[C@@H](CC(=O)O)C(=O)N[C@@H](Cc3c[nH]c4ccccc34)C(=O)N[C@@H](CO)C(=O)N[C@@H]([C@@H](C)O)C(=O)N3CCC[C@H]3C(=O)N3C[C@H](O)C[C@H]3C(=O)N[C@@H](Cc3c[nH]c4ccccc34)C(=O)N[C@H](C(N)=O)CSCCC5=O)nn1)C(=O)N1CCC[C@H]1C(=O)N[C@@H](Cc1ccc(O)cc1)C(=O)N2,Tumor necrosis factor receptor superfamily member 9/Nectin-4,"reporter gene, agonist, luciferase reporter",CD137 Jurkat reporter with HT-1376,"6 h, geometric mean",reference: wells without compound,Emax,43 fold
Cc1ccc(Cl)cc1N1CCN(CCCNc2ncnc3onc(-c4ccc(F)cc4)c23)CC1,Vero-E6,CellTiter-Glo ATP,,"concentration not given, 72 h, first round 5-point","reference: DMSO 0%, hyamine -100%, more negative, more toxic",cytotoxicity efficacy,0%
CN(C(=O)n1cnc(-c2ccc[n+]([O-])c2)c1)C1CCCCC1,"CYP2C19 (Homo sapiens, UniProt P33261)","enzyme activity, inhibitor",,"10 µM, together with: 3-cyano-7-ethoxycoumarin substrate",,inhibition,-6%
CC1(C)[C@H](C(=O)O[C@H](C#N)c2cccc(Oc3ccccc3)c2)[C@@H]1C=C(Br)Br,human CYP1A2,IVIVE from expressed enzymes,"human, liver, in vivo scaled","0.1 µM, age-specific",,enzyme contribution to CLint,0.4%
COc1ccc2cc1Oc1ccc(cc1)C[C@H]1c3cc(c(OC)cc3CCN1C)Oc1c(OC)c(OC)cc3c1[C@H](C2)N(C)CC3,"SLC22A6 (Homo sapiens, UniProt Q4U2R8)","transport, inhibitor",,"10 µM, together with: PAH",,inhibition,24.8%
Clc1ccc(C(c2ccccc2Cl)C(Cl)(Cl)Cl)cc1 (stereo not drawn),ABCG2,"inhibition, inhibitor",,"0.03 to 100 µM, together with: sulfasalazine 10 µM",,BCRP ATPase activity,inhibited
CCCc1nn(C)c2c(=O)[nH]c(-c3cc(S(=O)(=O)N4CCN(C)CC4)ccc3OCC)nc12,ABCG2,"transport, inhibitor",,"100 µM, 5 (unit not given), pH 7, together with: CCK-8",,inhibition,58.7%
CCCN1CCN(CCCNC(=O)c2cc3c(Cl)nc4ccccc4c3s2)CC1,Vero-E6,CellTiter-Glo ATP,,"concentration not given, 72 h, second round 5-point","reference: DMSO 0%, hyamine -100%, more negative, more toxic",cytotoxicity efficacy,-17.1%
CCCC[C@@H]1NC(=O)[C@H](Cc2ccc(O)cc2)NC(=O)[C@@H]2CCCN2C(=O)[C@H](CC(=O)O)NC(=O)[C@H](C)NC(=O)[C@H](Cc2ccccc2)NC(=O)[C@@H]2CSCCC(=O)N3CN(CN(C3)C(=O)CCSC[C@@H](C(=O)N[C@@H](C)C(N)=O)NC1=O)C(=O)CCSC[C@H](NC(=O)[C@H](C)NC(C)=O)C(=O)N[C@@H]([C@@H](C)CC)C(=O)N[C@@H](CCC(=O)O)C(=O)N[C@@H](CCC(=O)O)C(=O)N[C@H](CCCCNC(=O)CCc1cn(CCOCCOCCOCCOCCOCCC(=O)N[C@H]3CSCCC(=O)N4CN5CN(C4)C(=O)CCSC[C@H](NC(=O)[C@@H](CC(=O)O)NC(=O)[C@H](Cc4cccc6ccccc46)NC(=O)[C@@H]4CCCN4C3=O)C(=O)N[C@@H](CCSC)C(=O)N[C@@H](CCCCNC(=N)N)C(=O)N[C@@H](CC(=O)O)C(=O)N[C@@H](Cc3c[nH]c4ccccc34)C(=O)N[C@@H](CO)C(=O)N[C@@H]([C@@H](C)O)C(=O)N3CCC[C@H]3C(=O)N3C[C@H](O)C[C@H]3C(=O)N[C@@H](Cc3c[nH]c4ccccc34)C(=O)N[C@H](C(N)=O)CSCCC5=O)nn1)C(=O)N[C@@H](CCC(N)=O)C(=O)N[C@@H](Cc1ccc(O)cc1)C(=O)N2,Tumor necrosis factor receptor superfamily member 9/Nectin-4,"reporter gene, agonist, luciferase reporter",CD137 Jurkat reporter with HT-1376,"6 h, geometric mean",reference: wells without compound,Emax,28 fold

# Excerpt of the above:
Compound,tested on,test,test system,conditions,scale,endpoint,value
CN(C(=O)n1cnc(-c2ccc[n+]([O-])c2)c1)C1CCCCC1,"CYP2C19 (Homo sapiens, UniProt P33261)","enzyme activity, inhibitor",,"10 µM, together with: 3-cyano-7-ethoxycoumarin substrate",,inhibition,-6%
